Experimental data gathered from unrelated publications.
Lines come from different studies, so protocols differ. Several values in a cell are separate wells, animals, samples, runs or records. ± marks the error that the study gave.

CC(=O)NCCNc1ncc(C(=O)NC2=NN(c3ccc(Cl)c(Cl)c3)CC2)c(C)n1 — cytotoxicity (K562; CellTiter-Glo; concentration not given): not toxic
C=CS(=O)(=O)Oc1ccc(OC)c(-c2c[nH]c3ncc(-c4cncc(C(=O)N(C)C)c4)cc23)c1 — cytotoxicity (Ba/F3 parental, IL-3-dependent; concentration not given): not toxic
NC[C@H]1O[C@H](O[C@H]2[C@H](O)[C@@H](O[C@H]3O[C@H](Cn4cc(CNC(=S)Nc5ccc6c(c5)C(=O)OC65c6ccc(O)cc6Oc6cc(O)ccc65)nn4)[C@@H](O)[C@H](N)[C@H]3O)[C@H](N)C[C@@H]2N)[C@H](O)[C@@H](O)[C@@H]1O — cellular uptake (C2C12; flow cytometry; 5 µM, 24 h, unit not given; baseline: normalized fluorescence): 5 ± 0.1
N=C(N)c1ccc(OCCCOc2ccc(C(=N)N)cc2)cc1 — CC50 (Calu-3; 48 (unit not given)): > 500 µM
O=C(O)/C=C\C(=O)NCCCOCCOCCOCCCNC(=O)/C=C\C(=O)O — cytotoxicity (Hs68; MTT; up to 1000 ppm, 24 h): not toxic
O=C(OC[C@@]1(O)C(=O)C=C[C@H]2[C@@H]1[C@H]1C=C[C@@H]2C(=O)[C@]1(O)COC(=O)c1ccccc1)c1ccccc1 — viability (K562; MTT; range over 50 to 100 µg/mL): 8.73 to 15.4%
Cc1cc(/C=C/C#N)cc(C)c1Oc1nc(NC2CCN(Cc3ccc(S(C)(=O)=O)cc3)CC2)nc2ncccc12 — CC50 (MT4; cell growth or viability, MTT; 5 days): 21.1 µM
O=C1NC2(CC2)COc2ncc(F)cc2[C@H]2COCCN2c2ccn3ncc1c3n2 — structural aberrations (CHL; 75 µg/mL, 4 h, with rat liver S9): 0.3%
Cc1nc(Nc2ncc(C(=O)Nc3c(C)cccc3Cl)s2)cc(N2CCN(C(=O)CCOCCNC(=O)CN)CC2)n1 — viability (K562; cell growth or viability, CCK-8; 750 pM): 90% and 87%
N[C@@H](CNC(=O)N[C@@H](CS)C(=O)NCC(=O)O)C(=O)O — ZO-1 level (RPMI-2650; immunoblot; 0.5 mM, 24 h): no effect
COc1ccc(O)cc1-c1c[nH]c2ncc(-c3cncc(C(=O)N(C)C)c3)cc12 — cytotoxicity (Ba/F3 parental, IL-3-dependent; concentration not given): not toxic
O=C1/C(=C/c2ccc(O)c(Br)c2)CCC/C1=C\c1ccc(O)c(Br)c1 — CC50 (HCT-8; luminescent ATP cell viability; 24 h): 91 µM
CCc1c(-c2ccc3[nH]ncc3c2)cnc(N)c1-c1ccc(O)cc1 — viability (CHP-212 resistant sublines (heterozygous USP7 V517F); cell viability; 0.1953 µM): 106% and 101%

A few entries again:
N=C(N)c1ccc(OCCCOc2ccc(C(=N)N)cc2)cc1 — CC50 (Calu-3; 48 (unit not given)): > 500 µM
O=C1NC2(CC2)COc2ncc(F)cc2[C@H]2COCCN2c2ccn3ncc1c3n2 — structural aberrations (CHL; 75 µg/mL, 4 h, with rat liver S9): 0.3%
